Published values pooled from the literature.
Numbered parts are unrelated; each lists some results of a single study. Changes are numbered by the printed parent chain.

Sample 1 — method: universal PBM; molecule type: double-stranded DNA, one strand shown; sample: in vitro; concentration: not given; reading: higher = stronger binding
Target: Sal-like protein 4, full length isoform B (SALL4, Homo sapiens, UniProt Q9UJQ4-2, residues 1-616)
Notes: 8-mer, flanks averaged, mean of replicates
Sequence	E-score
GACAGGTA	0.078
GTGATGCA	0.132
CGTTATGC	0.189
ACATACTA	0.17
CTGTATAA	0.286
GAAGTAAA	0.166
AACTCTAG	0.0604
GTTTTCAA	0.214

Sample 2 — target: CREBZF, bZIP domain (human); method: DHFR protein complementation; sample: yeast; reference: wild-type JUN-FOS pair; reading: higher = stronger binding
Notes: single substitutions, most at no-binding floor
Parent: JUN, bZIP domain (human); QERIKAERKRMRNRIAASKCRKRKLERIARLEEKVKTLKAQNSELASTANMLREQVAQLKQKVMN; partner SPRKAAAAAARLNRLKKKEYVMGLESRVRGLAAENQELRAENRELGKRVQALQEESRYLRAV
Substitution	binding fitness [natural log]
A40W	-1.49
E44Q	-1.28
E44P	-1.51
T37I	-1.43
T48E	-1.52
R53T	-1.55
M51A	-1.49
S47E	-1.3

Single results of other studies
P1: viral docking peptide; KKAKRRLFTISDS; partner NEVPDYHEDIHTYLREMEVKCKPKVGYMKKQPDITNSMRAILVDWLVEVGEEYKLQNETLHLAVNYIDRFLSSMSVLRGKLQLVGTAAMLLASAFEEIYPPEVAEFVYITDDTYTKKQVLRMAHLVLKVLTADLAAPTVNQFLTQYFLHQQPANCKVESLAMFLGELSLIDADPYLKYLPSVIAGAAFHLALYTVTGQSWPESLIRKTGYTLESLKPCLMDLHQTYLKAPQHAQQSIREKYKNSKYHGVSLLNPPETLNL
Substance	target	assay	system	conditions	scale	measurement	result
PhoQ, residues 284 288 289 292 302 303 TTCLQL	PhoP, residues 12 14 15 18 19 NHFIF (Escherichia coli, UniProt P23836)	Sort-seq, measured: YFP reporter	E. coli	PhoQ-PhoP variant library, added: 10 µM Mg2+	reference: high Mg2+ state, higher = stronger signaling	fold induction	2
P1 D12A	CCNA2, cyclin fold, Cln2 fusion (human)	yeast growth competition, sequencing	yeast	strong parent motif	reference: not given, higher = stronger binding	normalised enrichment score	3.76
